# Earlier results as cited in several papers.
# Numbered parts are unrelated; values within a part may stem from several laboratories. ± marks the error that the study gave.
# Sequence of UniProt Q9JLB5 (whole entry, looked up): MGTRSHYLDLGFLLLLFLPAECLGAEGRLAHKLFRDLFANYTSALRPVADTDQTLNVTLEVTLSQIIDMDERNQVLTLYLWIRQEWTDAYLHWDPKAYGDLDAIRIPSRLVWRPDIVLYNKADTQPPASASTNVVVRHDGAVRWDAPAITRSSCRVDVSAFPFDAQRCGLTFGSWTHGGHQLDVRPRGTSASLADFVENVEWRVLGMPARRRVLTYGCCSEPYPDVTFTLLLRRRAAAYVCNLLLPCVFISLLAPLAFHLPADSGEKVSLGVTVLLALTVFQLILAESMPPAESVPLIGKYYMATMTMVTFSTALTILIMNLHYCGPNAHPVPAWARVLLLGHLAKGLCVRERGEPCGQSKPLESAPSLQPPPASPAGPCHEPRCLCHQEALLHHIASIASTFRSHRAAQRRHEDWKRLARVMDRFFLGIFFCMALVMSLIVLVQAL
# Sequence of UniProt Q9NSY1 (whole entry, looked up): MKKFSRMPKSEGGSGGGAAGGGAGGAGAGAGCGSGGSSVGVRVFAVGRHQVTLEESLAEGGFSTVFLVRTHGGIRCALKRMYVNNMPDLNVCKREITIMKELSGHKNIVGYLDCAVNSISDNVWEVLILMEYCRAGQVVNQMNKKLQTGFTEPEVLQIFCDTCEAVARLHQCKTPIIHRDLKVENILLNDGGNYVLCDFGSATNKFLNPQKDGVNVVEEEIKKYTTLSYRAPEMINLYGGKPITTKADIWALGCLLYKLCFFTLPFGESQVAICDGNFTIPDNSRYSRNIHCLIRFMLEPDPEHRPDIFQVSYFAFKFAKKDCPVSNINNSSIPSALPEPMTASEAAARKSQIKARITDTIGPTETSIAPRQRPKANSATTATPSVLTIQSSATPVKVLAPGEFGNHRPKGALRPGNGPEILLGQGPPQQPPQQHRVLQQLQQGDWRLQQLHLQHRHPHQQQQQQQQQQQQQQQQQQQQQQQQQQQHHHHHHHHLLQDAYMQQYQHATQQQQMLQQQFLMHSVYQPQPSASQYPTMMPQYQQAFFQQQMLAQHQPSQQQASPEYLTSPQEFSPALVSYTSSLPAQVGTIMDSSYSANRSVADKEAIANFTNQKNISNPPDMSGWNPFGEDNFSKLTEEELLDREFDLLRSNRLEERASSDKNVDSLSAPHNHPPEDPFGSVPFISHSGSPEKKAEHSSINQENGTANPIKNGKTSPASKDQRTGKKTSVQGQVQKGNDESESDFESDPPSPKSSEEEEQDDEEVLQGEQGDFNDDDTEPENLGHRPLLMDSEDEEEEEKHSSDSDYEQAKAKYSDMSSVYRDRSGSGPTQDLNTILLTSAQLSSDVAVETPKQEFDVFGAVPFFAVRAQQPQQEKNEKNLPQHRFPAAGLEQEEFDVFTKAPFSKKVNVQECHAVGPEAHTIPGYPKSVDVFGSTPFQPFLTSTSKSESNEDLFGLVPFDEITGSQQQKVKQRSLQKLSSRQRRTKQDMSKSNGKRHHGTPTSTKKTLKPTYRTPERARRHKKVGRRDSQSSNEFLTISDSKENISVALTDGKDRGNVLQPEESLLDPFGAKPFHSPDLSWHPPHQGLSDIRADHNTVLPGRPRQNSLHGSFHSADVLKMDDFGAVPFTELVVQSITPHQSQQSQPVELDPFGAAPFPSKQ
# Sequence of UniProt P43144 (whole entry, looked up): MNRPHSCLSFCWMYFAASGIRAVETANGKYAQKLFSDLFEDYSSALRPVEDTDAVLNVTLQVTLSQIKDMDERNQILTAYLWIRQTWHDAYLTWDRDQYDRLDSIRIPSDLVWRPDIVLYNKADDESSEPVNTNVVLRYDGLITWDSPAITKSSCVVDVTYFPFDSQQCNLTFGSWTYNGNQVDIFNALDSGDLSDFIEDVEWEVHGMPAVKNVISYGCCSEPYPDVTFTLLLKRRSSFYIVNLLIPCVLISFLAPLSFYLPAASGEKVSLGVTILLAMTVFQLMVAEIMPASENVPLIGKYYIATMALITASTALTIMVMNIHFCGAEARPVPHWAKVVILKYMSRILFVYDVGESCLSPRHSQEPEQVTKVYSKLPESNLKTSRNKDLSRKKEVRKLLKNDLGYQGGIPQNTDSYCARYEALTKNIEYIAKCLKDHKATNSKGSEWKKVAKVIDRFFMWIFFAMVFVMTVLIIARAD
# Sequence of UniProt Q07343 (whole entry, looked up): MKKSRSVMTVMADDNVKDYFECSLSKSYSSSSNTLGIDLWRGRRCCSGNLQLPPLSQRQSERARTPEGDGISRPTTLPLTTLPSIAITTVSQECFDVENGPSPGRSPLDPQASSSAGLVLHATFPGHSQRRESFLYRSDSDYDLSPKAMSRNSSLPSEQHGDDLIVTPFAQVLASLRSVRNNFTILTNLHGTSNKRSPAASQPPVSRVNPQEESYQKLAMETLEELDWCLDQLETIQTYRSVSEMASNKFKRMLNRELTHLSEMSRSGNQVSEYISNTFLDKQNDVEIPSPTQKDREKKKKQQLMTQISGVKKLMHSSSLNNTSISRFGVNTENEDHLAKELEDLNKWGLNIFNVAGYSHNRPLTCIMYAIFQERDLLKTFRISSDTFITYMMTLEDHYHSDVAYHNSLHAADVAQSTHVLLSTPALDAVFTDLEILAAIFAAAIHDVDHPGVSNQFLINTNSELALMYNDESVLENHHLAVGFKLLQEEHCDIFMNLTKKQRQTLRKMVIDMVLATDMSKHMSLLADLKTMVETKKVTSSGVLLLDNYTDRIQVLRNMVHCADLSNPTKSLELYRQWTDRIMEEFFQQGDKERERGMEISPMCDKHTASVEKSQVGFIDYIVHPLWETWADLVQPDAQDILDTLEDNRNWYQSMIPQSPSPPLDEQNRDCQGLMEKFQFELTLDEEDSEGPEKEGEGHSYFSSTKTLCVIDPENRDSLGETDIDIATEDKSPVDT
# Sequence of UniProt P46098 (whole entry, looked up): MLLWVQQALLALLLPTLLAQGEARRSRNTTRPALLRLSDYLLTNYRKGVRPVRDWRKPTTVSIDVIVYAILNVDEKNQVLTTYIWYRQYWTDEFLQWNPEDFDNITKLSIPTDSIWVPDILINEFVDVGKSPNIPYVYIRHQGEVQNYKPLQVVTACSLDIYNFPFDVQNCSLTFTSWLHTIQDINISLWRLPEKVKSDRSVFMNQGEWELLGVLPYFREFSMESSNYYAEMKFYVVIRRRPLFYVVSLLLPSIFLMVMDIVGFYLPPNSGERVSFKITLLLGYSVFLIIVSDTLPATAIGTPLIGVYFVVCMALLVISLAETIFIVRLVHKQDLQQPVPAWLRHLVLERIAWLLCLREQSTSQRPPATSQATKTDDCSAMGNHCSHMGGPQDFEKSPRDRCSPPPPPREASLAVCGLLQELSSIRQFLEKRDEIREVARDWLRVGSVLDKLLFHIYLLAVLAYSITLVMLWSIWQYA

# Block 1
# Target: HLA class I histocompatibility antigen, A alpha chain, allele A*25:01 (Homo sapiens, UniProt P04439)
# Observed: peptide-MHC binding
# Molecule type: peptide
Sequence,IC50 [µM]
EGFDPRALI,> 20
WLGWGHAWV,> 20
TMGPHPAGV,> 20
SYMMDDLELI,> 20
SLMASSPTSI,> 20
LNWFEIWIV,> 20
MPWLDNIVE,> 20
NMVADLWHA,> 20
WTLAKPDFV,> 20
RAWDPQPAM,> 20
GMHDGTVGK,> 20
SHDLAPQFL,> 20
FSSCPVAY,> 20
SLLERGQQLGV,> 20
LVTMGTGTFGR,> 20
RTFSILNRK,> 20
LKEKSSLRY,> 20
FLAFFSNGV,> 20
MQIDGGEGV,> 20
RSVWIPGRW,> 20
YSSHELWHF,> 20
RGYVWTNGY,> 20
SVIDHIHYM,0.014
MEDCPNEGV,> 20
RQSSGSSSSGF,> 20

# Other studies, line by line
# gltA: gltA (Thermoplasma acidophilum, UniProt P21553)
# Sequence of UniProt P21553 (whole entry, looked up): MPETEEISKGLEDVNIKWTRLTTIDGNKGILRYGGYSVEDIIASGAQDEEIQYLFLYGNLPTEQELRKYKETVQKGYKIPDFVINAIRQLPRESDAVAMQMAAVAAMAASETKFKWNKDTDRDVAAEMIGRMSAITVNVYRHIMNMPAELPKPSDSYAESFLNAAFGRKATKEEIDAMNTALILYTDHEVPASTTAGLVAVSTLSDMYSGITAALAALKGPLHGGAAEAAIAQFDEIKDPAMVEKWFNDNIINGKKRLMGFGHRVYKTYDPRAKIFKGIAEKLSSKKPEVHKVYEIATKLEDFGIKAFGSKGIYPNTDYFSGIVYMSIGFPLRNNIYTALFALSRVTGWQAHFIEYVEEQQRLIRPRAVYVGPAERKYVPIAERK
SMILES,target or system,test,system,setting,scale,quantity,result
CC(=O)SCCNC(=O)CCNC(=O)[C@H](O)C(C)(C)COP(=O)(O)OP(=O)(O)OC[C@H]1O[C@@H](n2cnc3c(N)ncnc32)[C@H](O)[C@@H]1OP(=O)(O)O,gltA,substrate,,"100 µM, pH 8, 20 °C, added: oxaloacetate 400 µM",,kcat,9.2 s⁻¹
O=C(O)C(F)(F)C(F)(F)C(F)(F)C(F)(F)C(F)(F)C(F)(F)C(F)(F)C(F)(F)C(F)(F)C(F)(F)F,CYP2C19,,,concentration not given,,activity,inactive
ClC1=C(Cl)[C@]2(Cl)[C@@H]3[C@@H]4C[C@@H]([C@H]5O[C@@H]45)[C@@H]3[C@@]1(Cl)C2(Cl)Cl,,,,pH 7.4,,logD,4.94
CC[C@H](C)CCCCC(=O)N[C@@H](CCN)C(=O)N[C@H](C(=O)N[C@@H](CCN)C(=O)N[C@H]1CCNC(=O)[C@H]([C@@H](C)O)NC(=O)[C@H](CCN)NC(=O)[C@H](CCN)NC(=O)[C@H](CC(C)C)NC(=O)[C@@H](CC(C)C)NC(=O)[C@H](CCN)NC1=O)[C@@H](C)O,,,patients,5 mg/kg/day,,nephrotoxicity incidence,69%
COC1=C[C@]23CCN(C)[C@H](Cc4ccc(OC)c(O)c42)C3=CC1=O,hepatitis B virus,"antigen secretion, refers to: HBeAg",HepG2.2.15,,,IC50,2.81 µM
COc1ncccc1-c1cnn2ccc(N3CCN(C(=O)OC(C)C)CC3)nc12,"BMP2K (Homo sapiens, UniProt Q9NSY1)",,,literature value,,IC50,0.014 µM
C=C1C(=O)O[C@@H]2[C@H]3C(=C)[C@@H](O)C[C@H]3C(=C)C[C@H](O)[C@@H]12,hepatitis B virus,HBsAg secretion,HepG2.2.15,,,IC50,28.8 µM
CCCCCCCCCCCCCC(=O)O[C@@H]1[C@@H](C)[C@@]2(O)[C@@H](C=C(CO)C[C@]3(O)C(=O)C(C)=C[C@@H]23)[C@@H]2C(C)(C)[C@]12OC(C)=O,phorbol ester receptor,radioligand binding,,,,Ki,0.00059 µM
OCCOc1ccccc1,,,plasma,literature value,,fraction unbound,0.56
CNC(=NC#N)NCCCCCCCCc1c[nH]cn1,,"antinociception, hot plate test",rat,"intracerebroventricular, 5 min",,ED50,81.9 nmol
CN1CCc2[nH]c3ccccc3c2CC1.O=C(O)/C=C/C(=O)O,"Nicotinic acetylcholine receptor alpha9/alpha10 (Rattus norvegicus, UniProt P43144+Q9JLB5)",inhibitor,,added: 100 µM acetylcholine,,Hill coefficient,2 ± 0.2
CC(C)(COP(=O)(O)OP(=O)(O)OCC1OC(n2cnc3c(N)ncnc32)C(O)C1OP(=O)(O)O)C(O)C(=O)NCCC(=O)NCCSC(=O)CC(O)(CC(=O)O)C(=O)O (centres unmarked),gltA,substrate,,"saturating, pH 8, 20 °C",,hydrolysis rate constant,9.2 s⁻¹
COC(=O)[C@]12CCC(C)(C)C[C@H]1[C@H]1C(=O)C=C3[C@@]4(C)C=C(C#N)C(=O)C(C)(C)[C@@H]4CC[C@@]3(C)[C@]1(C)CC2,,,human,"oral, 21 days daily dosing",,maximum tolerated dose,900 mg
ClC(Cl)=C(c1ccc(Cl)cc1)c1ccc(Cl)cc1,,,,pH 7.4,,logD,6.46
OC[C@H]1OC(O)[C@H](O)[C@@H](O)[C@@H]1O (some centres unmarked),human hexokinase 4 N204A,substrate,,,,K0.5,976 ± 89 mM
N#CCNC(=O)c1ccc(-c2ccnc(Nc3ccc(N4CCOCC4=O)cc3)n2)cc1,,,moderate renal impairment,dose not given,,AUC(0-inf) increase,20%
S=C(NC1CCCCC1)N1CCC(c2cnc[nH]2)CC1,,hot plate test,rat,"intracerebroventricular, 340 nmol",,antinociceptive activity,inactive
C=C(CC(C)(C)c1ccc(O)cc1)c1ccc(O)cc1,MCF-7 ERE-luciferase,"reporter gene, agonist",,,baseline: compound over bisphenol A,relative potency,200 fold
CN1[C@@H]2CC[C@H]1C[C@@H](OC(=O)c1cc(Cl)cc(Cl)c1)C2,"HTR3A (Homo sapiens, UniProt P46098)",binding,,,,Hill coefficient,0.8
O=C(c1cc2cccnc2n1-c1ccc(Cl)c(Cl)c1)N1CC(F)(F)C1,"PDE4B (Homo sapiens, UniProt Q07343)",,,,,IC50,~0.14 µM
O=S(=O)(O)C(F)(F)C(F)(F)C(F)(F)C(F)(F)F,CYP2C19,inhibitor,,Tox21 screening,,IC50,44.9 ± 18.1 µM
CCCCCC(=O)N[C@H]1[C@H]([C@@H](O)[C@@H](O)CNC(C)=O)OC(C(=O)O)=C[C@@H]1O,"Sialidase-1 (NEU1, Homo sapiens, UniProt Q99519)",inhibitor,,,,Ki,0.053 ± 0.005 µM
CCCCCc1cc(O)c2c(c1)OC(C)(C)[C@@H]1CCC(C)=C[C@@H]21,,,mice,dose not given,,body temperature reduction,~6 °C
[N-]=[N+]=NCCCCCCCCCCCC(=O)OCC1OC(n2ccc(N)nc2=O)CS1 (centres unmarked),HIV,,,"concentration not given, cell-free virus, at least",baseline: lamivudine,anti-HIV activity fold,16 to 36 fold
CC(C)c1cccc(=O)c(O)c1,,,rat male,,,no adverse effect level,12.7 mg/kg/day
